Results of several laboratories.
Compare with care: the assays were run in different laboratories. Numbers after ± are the reported error.

SMILES = COc1cc2c(Oc3ccc4[nH]c(C)cc4c3F)ccnc2cc1OCC1(N)CC1; system = paediatric recurrent refractory sarcoma; conditions = concentration not given, whole group; endpoint = grade 1 or 2 Anorexia; value = 14.7%
SMILES = Clc1cc2c(cc1Cl)Oc1c(ccc(Cl)c1Cl)O2; system = whole cow milk; conditions = 2000 nM nominal; endpoint = dose fraction in skim milk; value = 5.34%
SMILES = Cn1cc(-c2nc(N[C@@H]3CCCC[C@@H]3N)c(F)c3c2C(=O)NC3)cn1; assay = measured: Retinal haemorrhage; system = patients with relapsed or refractory AML; conditions = oral, 60 mg twice daily; endpoint = hemorrhagic adverse events; value = 13%
SMILES = CN1CCN(S(=O)(=O)c2cc([N+](=O)[O-])ccc2N(CCOS(C)(=O)=O)CCOS(C)(=O)=O)CC1; system = NSG mice female, plasma; conditions = intraperitoneal, 10 mg/kg, 1 h; endpoint = concentration; value = 190 nM
SMILES = CC(C)(c1ccccc1)c1cc(-n2nc3ccccc3n2)c(O)c(C(C)(C)c2ccccc2)c1; system = human aged 11-16 years; conditions = concentration not given, spray sunscreen, mean; endpoint = daily dermal exposure dose; value = 8.26 ng/kg/day
SMILES = CC(=O)NCC(=O)NCC(=O)N[C@H](C(=O)N[C@@H](Cc1ccc(O)cc1)C(=O)N[C@@H](CO)C(=O)N[C@H]1CSSC[C@@H](C(=O)N[C@@H](CCCNC(=N)N)C(=O)N2CCC[C@H]2C(=O)N[C@@H](CCC(N)=O)C(=O)N[C@@H](CCCNC(=N)N)C(=O)NCC(=O)NCCC(=O)N[C@@H](CCCCNC(=O)CN(CC(=O)NCCCC[C@H](NC(=O)CCNC(=O)CNC(=O)[C@H](CCCNC(=N)N)NC(=O)[C@H](CCC(N)=O)NC(=O)[C@@H]2CCCN2C(=O)[C@H](CCCNC(=N)N)NC(=O)[C@@H]2CSSC[C@H](NC(=O)[C@H](CO)NC(=O)[C@H](Cc3ccc(O)cc3)NC(=O)[C@@H](NC(=O)CNC(=O)CNC(C)=O)[C@@H](C)O)C(=O)N[C@@H](Cc3c[nH]cn3)C(=O)N[C@@H](Cc3ccccc3)C(=O)NCC(=O)N[C@@H](C)C(=O)N[C@@H](CC(C)C)C(=O)N[C@@H]([C@@H](C)O)C(=O)N[C@@H](Cc3c[nH]c4ccccc34)C(=O)N[C@@H](C(C)C)C(=O)N2)C(N)=O)C(=O)CCN)C(N)=O)NC(=O)[C@H](C(C)C)NC(=O)[C@H](Cc2c[nH]c3ccccc23)NC(=O)[C@H]([C@@H](C)O)NC(=O)[C@H](CC(C)C)NC(=O)[C@H](C)NC(=O)CNC(=O)[C@H](Cc2ccccc2)NC(=O)[C@H](Cc2c[nH]cn2)NC1=O)[C@@H](C)O; assay = MSD immunoassay; system = BALB/c mice, healthy female, serum; conditions = subcutaneous, 0.08 mg/kg, 72 h, LLOQ 2.0 ng/mL; endpoint = serum concentration; value = not detected
SMILES = CC(=O)c1c(C)c2cnc(Nc3ccc(C4CCN(CCS(C)(=O)=O)CC4)cn3)nc2n(C2CCCC2)c1=O; system = human, dose-escalation trial, plasma; conditions = oral, 25 mg twice daily, day 1, single dose; endpoint = AUC(0-inf); value = 646 ng·h/mL
SMILES = COc1ccc(C[C@@H]2NC(=O)[C@H]([C@@H](C)O)NC(=O)[C@@H]3[C@@H]4CCN3C(=O)[C@@H]3Cc5cn(c6ccc(F)cc56)CCCCCCN(Cc5ccc(cc5)CCNC(=O)[C@]5(C)CCCN5C2=O)C(=O)CCC(=O)N[C@@H](C)C(=O)N[C@H](CNC(=O)CCCCC[N+](C)(C)C)C(=O)N[C@@H](Cc2cccc(c2)CNC(=O)CO4)C(=O)N3)cc1; assay = measured: Regurgitation; system = humans; conditions = concentration not given, Study-003; endpoint = participants with adverse event; value = 3.2%
SMILES = CCCC1CCC(C2CCC(c3ccc(F)c(F)c3)CC2)CC1 (centres unmarked); system = rat, placenta; conditions = 1000 ng/mL in perfusate, middle dose, mixture of 21 LCMs; endpoint = median placental accumulation; value = 6.32 ng/g
SMILES = O=S(=O)(Nc1ccc2c(c1)B(O)OC2)c1ccc(Cl)cc1; assay = PAMPA; conditions = 200 µM, 5 h, pH 7.4; endpoint = membrane retention; value = 7.3%
SMILES = C[C@H]1C[C@@H](N2C(=N)N[C@](C)(c3cccc(NC(=O)c4cccc(C#N)c4)c3Cl)CC2=O)CCO1; system = rat; conditions = 1000 mg/kg, every other day; endpoint = lymphocytes count change; value = 42%
SMILES = CC(C)(O)c1cc(Nc2cc(Oc3cn(C4CC4)nc3C3CCOCC3)ccn2)ccn1; assay = Diarrhea; system = advanced cancer patients, dose escalation; conditions = oral, dose not given, 3 weeks on/1 off, all causality grade ≥3; endpoint = treatment-emergent adverse events; value = 0%
SMILES = Nc1nc2cc(-c3ccc4ncc(C(=O)N5CCOCC5)n4c3)ccc2o1; assay = measured: Anemia, any cause, all grades; system = patients with advanced solid tumours; conditions = dose not given; endpoint = patients with adverse events; value = 33%
SMILES = Nc1ncnc2c1ncn2[C@@H]1O[C@@H]2COP(=O)([S-])O[C@@H]3[C@H](O)[C@@H](COP([O-])(=S)O[C@H]2[C@H]1O)O[C@H]3n1cnc2c(N)ncnc21.[Na+].[Na+] (some centres unmarked); system = non-tumor-bearing mice, blood; conditions = intravenous, 1 mg/kg, toxicity study; endpoint = MCH; value = 23.1 ± 0.33 pg

Excerpt of the above:
SMILES = O=S(=O)(Nc1ccc2c(c1)B(O)OC2)c1ccc(Cl)cc1; assay = PAMPA; conditions = 200 µM, 5 h, pH 7.4; endpoint = membrane retention; value = 7.3%
SMILES = CC(=O)c1c(C)c2cnc(Nc3ccc(C4CCN(CCS(C)(=O)=O)CC4)cn3)nc2n(C2CCCC2)c1=O; system = human, dose-escalation trial, plasma; conditions = oral, 25 mg twice daily, day 1, single dose; endpoint = AUC(0-inf); value = 646 ng·h/mL
